Measurements of several laboratories.
Every numbered part comes from another study and shows a few of its results, in no order. Changes are numbered by the printed parent chain.

Set 1
Target: CCNB1, cyclin fold, Cln2 fusion (human)
Technique: yeast growth competition, sequencing
Medium: yeast
Setting: strong parent motif
Relative to: not given
Direction: higher = stronger binding
Parent: PKN2 docking peptide (human); VSAVQKLDFSDTM
`VMAVQKLDFSDTM [S2M]`: “normalised enrichment score” 2.16.
For `VSAVQKLFFSDTM [D8F]`, “normalised enrichment score” read 0.993.
Under “normalised enrichment score”, `VSAVQALDFSDTM [K6A]` is recorded as 1.06.
Under “normalised enrichment score”, `VSAVQVLDFSDTM [K6V]` is recorded as 0.953.
Under “normalised enrichment score”, `VSAVQKLDFKDTM [S10K]` is recorded as 1.24.
`VTAVQKLDFSDTM [S2T]`: “normalised enrichment score” 2.29.
`FSAVQKLDFSDTM [V1F]`: “normalised enrichment score” 2.49.
For `VSAVQKLDFQDTM [S10Q]`, “normalised enrichment score” read 1.35.
`VSAVQKLDFSDFM [T12F]`: “normalised enrichment score” 1.58.
Under “normalised enrichment score”, `VSAVQKLAFSDTM [D8A]` is recorded as 0.531.
`VSAEQKLDFSDTM [V4E]`: “normalised enrichment score” 0.341.
For `VSEVQKLDFSDTM [A3E]`, “normalised enrichment score” read -0.0487.
`VSAVQKLDHSDTM [F9H]` — result for “normalised enrichment score”: -0.608.
`VSAVQKLDFSLTM [D11L]` — result for “normalised enrichment score”: 1.46.
`VSAVQKLDFVDTM [S10V]` — result for “normalised enrichment score”: 1.69.

Set 2
Target: ABI1, truncated, D143A, DHFR fusion (Arabidopsis thaliana, UniProt P49597)
Technique: DHFR PCA, dose-response
Medium: yeast
Setting: Hill fit, mean, not affinity
Together with: (+)-ABA, dose series
Direction: lower = more sensitive
Parent: PYL1, truncated, DHFR fusion (Arabidopsis thaliana, UniProt Q8VZS8); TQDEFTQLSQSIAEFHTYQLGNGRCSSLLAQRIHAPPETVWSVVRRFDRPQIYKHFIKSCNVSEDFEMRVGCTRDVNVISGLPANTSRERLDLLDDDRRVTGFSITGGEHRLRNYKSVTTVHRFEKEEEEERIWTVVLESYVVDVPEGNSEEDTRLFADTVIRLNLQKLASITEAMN
The ABA EC50 of `T106G` is reported as 242 µM.
The ABA EC50 of `R113C` is reported as 5.4 µM.
`S104H` has an ABA EC50 of 75 µM.
For `E14S`, the ABA EC50 was 9.05 µM.
The ABA EC50 of `I133A` is reported as 1.01 µM.
The ABA EC50 of `Y53A` is reported as 130 µM.
`T17V` has an ABA EC50 of 12.5 µM.
With `A30T` the ABA EC50 was 1.76 µM.
For `S42T`, the ABA EC50 was 4.9 µM.
The ABA EC50 of `M176P` is reported as 3.69 µM.
`A84S` has an ABA EC50 of 175 µM.
`N61S` has an ABA EC50 of 2.21 µM.
With `R45G` the ABA EC50 was 138 µM.
With `V142F` the ABA EC50 was 41.5 µM.
`E38A` has an ABA EC50 of 4.97 µM.
`T39K` has an ABA EC50 of 1.9 µM.
`D48R` has an ABA EC50 of 147 µM.
`A175W` has an ABA EC50 of 5.98 µM.
`Q7D` has an ABA EC50 of 2.16 µM.
With `I79W` the ABA EC50 was 5.09 µM.
`L28W` has an ABA EC50 of 25.1 µM.
With `L20Y` the ABA EC50 was 3.06 µM.
`N77R` gave an ABA EC50 of 1.75 µM.
The ABA EC50 of `T17S` is reported as 5.19 µM.

Set 3
Target: Ras GTPase-activating protein-binding protein 1, full length (G3BP1, Homo sapiens, UniProt Q13283)
Sequence of UniProt Q13283 (whole entry, looked up): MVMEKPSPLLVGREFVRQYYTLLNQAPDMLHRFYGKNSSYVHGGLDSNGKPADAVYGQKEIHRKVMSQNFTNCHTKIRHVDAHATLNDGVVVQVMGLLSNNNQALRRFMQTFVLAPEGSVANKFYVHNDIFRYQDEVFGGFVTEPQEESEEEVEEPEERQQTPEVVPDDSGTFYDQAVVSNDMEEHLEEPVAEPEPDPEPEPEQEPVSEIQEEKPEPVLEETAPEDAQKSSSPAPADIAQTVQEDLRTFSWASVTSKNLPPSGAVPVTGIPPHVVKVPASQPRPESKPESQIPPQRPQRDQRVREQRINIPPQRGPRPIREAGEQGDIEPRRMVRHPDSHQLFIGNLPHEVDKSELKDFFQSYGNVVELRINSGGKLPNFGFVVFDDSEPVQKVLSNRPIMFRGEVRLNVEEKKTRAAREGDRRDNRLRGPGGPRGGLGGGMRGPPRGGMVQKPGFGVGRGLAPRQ
Technique: RNA Bind-n-Seq
Molecule type: RNA
Medium: in vitro
Concentration: 200 nM
Setting: whole 134-nt RNA, ends assumed
Together with: 150 mM KCl
Relative to: input library
Direction: higher = stronger binding
The log2 enrichment of `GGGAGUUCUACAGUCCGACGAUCUUCAGUUUCCCAAACCUGAGAUGAUCUGUCAGCUGGAGAACUGGGACGAGCAGUGGAUCCUGGAUCUACCGAGAACUGGGAAUAGGAAGGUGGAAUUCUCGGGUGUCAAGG` is reported as 0.324.
The log2 enrichment of `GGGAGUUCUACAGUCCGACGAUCGCAGGAAGUAAAAACAAAUGGAAAUGCUUCGGAUAGUGGCAGGGGUGGGGGUUGCUAAGGAAAGGGUGGAAAGGGAGUGGGUAAAGAGUUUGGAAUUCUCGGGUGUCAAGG` is reported as 0.798.
`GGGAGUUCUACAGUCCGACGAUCCCUCAAGUCCUGUGCUACACAUCGUAUGUACCGAAUCGGUGGAAAGGUUUGGAAAGUAUUAUGUUACGCCGUUCGGAUCUGCACUUCCAGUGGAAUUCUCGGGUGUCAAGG` has a log2 enrichment of -0.454.
`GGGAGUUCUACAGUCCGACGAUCUCAAGUCCUGUGCUACACAUCGUAUGUACCGAAUCGGGGCCGGGCCGGGCCGGGGAAAGUAUUAUGUUACGCCGUUCGGAUCUGCACUUCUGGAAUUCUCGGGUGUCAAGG` gave a log2 enrichment of 0.212.
With `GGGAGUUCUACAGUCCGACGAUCGCAGGAAGUAAAAACAAAUGGAAAUGCUUCGGAUAGUGGCAGGGGUGGGGGUUGUUAAGGAAAGGGUGGGAUGGGAGUGGGUAAAGAGUUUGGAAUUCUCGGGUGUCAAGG` the log2 enrichment was 0.891.
`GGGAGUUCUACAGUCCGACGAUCCCUGUGCUACACAUCGUAUGUACCGAAUCGGAAAAAAAGGGAAAAAAAGGAAAAAAAGGGAAAGUAUUAUGUUACGCCGUUCGGAUCUGCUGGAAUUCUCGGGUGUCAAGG` has a log2 enrichment of -0.956.
`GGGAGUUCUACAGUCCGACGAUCUAACUUUAGAGGAGGAUCUGAUGGAUAUGGCAGUGGACGUGGAUUUGGGGAUGGCUAUAAUGGGUAUGGAGGAGGACCUGGAGGUGGCAAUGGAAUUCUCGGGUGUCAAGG` has a log2 enrichment of 0.229.
For `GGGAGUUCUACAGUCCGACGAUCGGUGGAAUCCAUAGAGCUCCCCAUGGACAACAAGACCAAUAAGAGGCGUGGGUUCUGCUUUAUUACCUUUAAGGAAGAAGAACCAGUGAAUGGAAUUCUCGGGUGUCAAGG`, the log2 enrichment was -0.0881.
`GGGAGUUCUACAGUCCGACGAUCUGGGAGGUGGAUUUUGUUUAUUUUUUUAGCUCAUUUCCAGGGGUGGGAACUUUUUUUUAAUAUGUGUCAUGAAUAAAGUUGUUUUUGAAAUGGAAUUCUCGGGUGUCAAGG` has a log2 enrichment of 0.244.

Other studies, line by line
With `PhoQ, residues 284 288 289 292 302 303 TLASMF` the fold induction was 2.63 (PhoP, residues 12 14 15 18 19 NMSFL (Escherichia coli, UniProt P23836); Sort-seq, measured: YFP reporter; E. coli; PhoQ-PhoP variant library, together with: 10 µM Mg2+; relative to: high Mg2+ state, higher = stronger signaling).

Some of these lines once more (set 1):
Under “normalised enrichment score”, `VSAVQKLDFKDTM [S10K]` is recorded as 1.24.
`VTAVQKLDFSDTM [S2T]`: “normalised enrichment score” 2.29.
`FSAVQKLDFSDTM [V1F]`: “normalised enrichment score” 2.49.
For `VSAVQKLDFQDTM [S10Q]`, “normalised enrichment score” read 1.35.
`VSAVQKLDFSDFM [T12F]`: “normalised enrichment score” 1.58.
Under “normalised enrichment score”, `VSAVQKLAFSDTM [D8A]` is recorded as 0.531.
